Experimental data pooled from the literature.
A part holds a random share of what one study measured. Several values in a cell are separate wells, animals, samples, runs or records.
Sequence of UniProt Q9HCP0 (whole entry, looked up): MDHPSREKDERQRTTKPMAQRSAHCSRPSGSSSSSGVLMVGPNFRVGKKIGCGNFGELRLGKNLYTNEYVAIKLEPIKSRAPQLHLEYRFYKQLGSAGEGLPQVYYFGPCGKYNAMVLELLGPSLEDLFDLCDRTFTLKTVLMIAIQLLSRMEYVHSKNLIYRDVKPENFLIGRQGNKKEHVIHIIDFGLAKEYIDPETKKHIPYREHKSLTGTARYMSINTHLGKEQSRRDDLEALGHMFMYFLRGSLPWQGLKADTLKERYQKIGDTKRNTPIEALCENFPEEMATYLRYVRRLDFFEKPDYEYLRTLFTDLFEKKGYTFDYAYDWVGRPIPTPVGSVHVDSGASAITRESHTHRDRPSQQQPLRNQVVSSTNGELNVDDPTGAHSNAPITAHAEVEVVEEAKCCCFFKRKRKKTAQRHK
Sequence of UniProt Q8TDX7 (whole entry, looked up): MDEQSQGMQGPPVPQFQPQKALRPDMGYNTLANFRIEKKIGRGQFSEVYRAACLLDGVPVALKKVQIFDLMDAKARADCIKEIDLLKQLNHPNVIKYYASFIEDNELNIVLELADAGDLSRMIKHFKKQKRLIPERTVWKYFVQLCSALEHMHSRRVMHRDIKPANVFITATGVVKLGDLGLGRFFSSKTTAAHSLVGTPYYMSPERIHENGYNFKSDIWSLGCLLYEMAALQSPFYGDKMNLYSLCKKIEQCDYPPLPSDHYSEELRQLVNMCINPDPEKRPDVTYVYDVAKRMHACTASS
Sequence of UniProt P45983 (whole entry, looked up): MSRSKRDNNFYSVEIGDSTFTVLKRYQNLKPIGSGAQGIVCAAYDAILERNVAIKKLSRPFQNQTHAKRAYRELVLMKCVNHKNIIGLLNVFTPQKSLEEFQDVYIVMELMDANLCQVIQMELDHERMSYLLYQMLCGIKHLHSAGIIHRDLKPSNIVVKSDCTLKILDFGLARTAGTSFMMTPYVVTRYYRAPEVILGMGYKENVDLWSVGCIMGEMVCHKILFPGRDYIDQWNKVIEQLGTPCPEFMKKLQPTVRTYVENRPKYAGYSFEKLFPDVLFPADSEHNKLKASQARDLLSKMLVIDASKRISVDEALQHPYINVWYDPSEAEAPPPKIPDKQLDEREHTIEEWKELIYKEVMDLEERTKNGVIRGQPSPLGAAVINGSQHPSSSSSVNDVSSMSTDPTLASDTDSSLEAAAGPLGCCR
Sequence of UniProt Q96KB5 (whole entry, looked up): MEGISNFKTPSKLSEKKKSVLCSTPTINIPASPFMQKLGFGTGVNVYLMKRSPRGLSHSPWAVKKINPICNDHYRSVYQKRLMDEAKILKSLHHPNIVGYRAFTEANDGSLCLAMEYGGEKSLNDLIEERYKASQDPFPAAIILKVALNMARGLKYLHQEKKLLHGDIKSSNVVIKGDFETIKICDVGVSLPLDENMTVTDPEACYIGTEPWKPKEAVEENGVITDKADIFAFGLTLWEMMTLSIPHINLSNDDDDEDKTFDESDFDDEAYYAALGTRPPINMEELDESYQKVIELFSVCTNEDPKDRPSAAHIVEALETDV

Block 1
SMILES: CN[C@@H]1C[C@H]2O[C@@](C)([C@@H]1OC)n1c3ccccc3c3c4c(c5c6ccccc6n2c5c31)C(=O)NC4
Effect on: enzyme activity
Mode: inhibitor
Tested at: 0.5 µM
Reference: control
Endpoint: remaining activity
CSNK1G1 (Homo sapiens, UniProt Q9HCP0): 91.4% and 103%
PBK (Homo sapiens, UniProt Q96KB5): 27.8%
MAPK8 (Homo sapiens, UniProt P45983): 88.3% and 102%
NEK7 (Homo sapiens, UniProt Q8TDX7): 95.8% and 101%

Block 2
Cell line: mouse MPNST tumor cells
Method: high-content nuclear imaging
Refers to: cell number
Tested at: 10 µM
Time: 12 h
Setting: mean of 2 replicates
Reference: plate mean
Reading: higher = more cells
Endpoint: nuclei count
c1ccc2c(c1)OCC(C1=NCCN1)O2 (stereo not shown): -0.931 z-score
Cc1ccc(C23CNCC2C3)cc1 (stereo not shown): 1.09 z-score
NCCCCCNC1(c2ccccc2)CCCCC1: 1.4 z-score
CC(C)N(CCC(C(N)=O)(c1ccccc1)c1ccccn1)C(C)C (stereo not shown): 1.34 z-score
O=[N+]([O-])O[C@@H]1CO[C@H]2[C@@H]1OC[C@@H]2O: 1.56 z-score

Block 3
Target: Calcium/calmodulin-dependent protein kinase type II subunit alpha (CAMK2A, Homo sapiens, UniProt Q9UQM7)
Sequence of UniProt Q9UQM7 (whole entry, looked up): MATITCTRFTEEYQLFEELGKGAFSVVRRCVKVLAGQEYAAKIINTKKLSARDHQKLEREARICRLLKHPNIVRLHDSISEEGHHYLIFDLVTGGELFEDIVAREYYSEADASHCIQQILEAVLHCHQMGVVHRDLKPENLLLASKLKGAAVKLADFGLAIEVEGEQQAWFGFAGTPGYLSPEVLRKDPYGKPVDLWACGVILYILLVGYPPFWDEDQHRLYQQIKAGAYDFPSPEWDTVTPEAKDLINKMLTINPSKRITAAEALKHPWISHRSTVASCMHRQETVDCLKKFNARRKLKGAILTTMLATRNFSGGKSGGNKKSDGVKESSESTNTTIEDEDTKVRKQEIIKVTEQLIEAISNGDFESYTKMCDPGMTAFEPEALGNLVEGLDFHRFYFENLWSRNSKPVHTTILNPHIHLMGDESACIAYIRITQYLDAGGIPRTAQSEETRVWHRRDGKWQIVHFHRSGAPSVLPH
Effect on: enzyme activity
Mode: inhibitor
Tested at: 10 µM
Endpoint: inhibition
CCC1(O)C(=O)OCc2c1cc1n(c2=O)Cc2cc3cc(O)ccc3nc2-1 (racemic): -13%
COc1cc(OC)c2c(=O)cc(-c3ccc(OC)c(OC)c3)oc2c1: 3%
COc1ccc2c3c1O[C@H]1C[C@@H](O)C=C[C@@]31CC[N@@+](C)([O-])C2: 4%
C[C@H](CCC(=O)O)C[C@H](C)C[C@H](C)C(=O)/C=C(\O)[C@H](C)C[C@H](C)C/C=C/[C@@H](C)[C@@H](O)[C@@H](C)[C@@H](O)C[C@@H]1CC[C@@](C)([C@H]2CC[C@@](C)([C@@H](C)O)O2)O1: -51%
NC(=O)NCCCC[C@H](N)C(=O)O: -15%
CC[C@H]1CN2CC[C@H]1C[C@H]2[C@H](O)c1ccnc2ccc(OC)cc12: -50%

Block 4
Target: Eukaryotic initiation factor 4A-I (EIF4A1, Homo sapiens, UniProt P60842)
Sequence of UniProt P60842 (whole entry, looked up): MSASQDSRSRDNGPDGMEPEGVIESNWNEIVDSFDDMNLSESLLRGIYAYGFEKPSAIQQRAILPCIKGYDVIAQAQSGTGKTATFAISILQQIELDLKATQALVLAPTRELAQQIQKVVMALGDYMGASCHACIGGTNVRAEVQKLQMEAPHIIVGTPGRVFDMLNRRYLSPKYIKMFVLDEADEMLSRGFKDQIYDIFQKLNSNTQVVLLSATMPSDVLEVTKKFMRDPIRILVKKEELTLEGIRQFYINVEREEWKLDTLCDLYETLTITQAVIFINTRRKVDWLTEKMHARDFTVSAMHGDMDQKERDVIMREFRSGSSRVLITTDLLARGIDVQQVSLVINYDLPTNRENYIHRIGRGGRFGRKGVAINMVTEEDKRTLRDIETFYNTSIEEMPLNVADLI
Effect on: RNA clamping
Method: fluorescence polarization
Tested at: concentration not given
With: FAM-labelled poly r(AG)8 RNA
Reading: higher = more clamping
Endpoint: fluorescence polarization change
CCCCC1=N[C@@]2(O)[C@H](C(=O)OC)[C@@H](c3ccccc3)[C@]3(c4ccc(OC)cc4)Oc4cc(OC)cc(OC)c4[C@]23N1: 67.9 mP
COc1ccc(-c2nc3c(c(=O)[nH]2)[C@@H](c2ccccc2)[C@]2(c4ccc(OC)cc4)Oc4cc(OC)cc(OC)c4[C@]32O)cc1: 14.6 mP and 18.6 mP
COc1ccc([C@@]23Oc4cc(OC)cc(OC)c4[C@]2(O)c2nc(-c4ccccc4)n(C)c(=O)c2[C@H]3c2ccccc2)cc1: 40.3 mP
COCC1=N[C@@]2(O)[C@H](C(=O)N(C)OC)[C@@H](c3ccccc3)[C@]3(c4ccc(OC)cc4)Oc4cc(OC)cc(OC)c4[C@]23N1: 65.1 mP
CONC(=O)[C@H]1[C@@H](O)[C@@]2(O)c3c(OC)cc(OC)cc3O[C@@]2(c2ccc(Br)cc2)[C@@H]1c1ccccc1: 70.8 mP and 74.7 mP
COc1ccc([C@@]23Oc4cc(OC)cc(OC)c4[C@]2(O)c2nc(-c4ccccc4)[nH]c(=O)c2[C@@H]3c2ccccc2)cc1: 10.3 mP
COC(=O)[C@H]1[C@@H](c2ccccc2)[C@]2(c3ccc(OC)cc3)Oc3cc(OC)cc(OC)c3[C@@]1(O)C2=O: 6.4 mP
COC(=O)[C@@H]1[C@@H](O)[C@@]2(O)c3c(OC)cc(OC)cc3O[C@@]2(c2ccc(OC)cc2)[C@H]1c1ccccc1: 19.7 mP
COC(=O)[C@@H]1[C@@H](c2ccccc2)[C@]2(c3ccccc3)Oc3ccccc3[C@@]1(O)[C@H]2O: 7.4 mP
COc1ccc([C@@]23Oc4cc(OC)cc(OC)c4[C@]2(O)c2nc4n(c(=O)c2[C@@H]3c2ccccc2)CCC4)cc1: 39.8 mP
